Results collected from several papers.
Compare with care: the assays were run in different laboratories. Values joined by “and” are separate records of one study, mostly repeats; a detail may differ.
FLT3: Receptor-type tyrosine-protein kinase FLT3 (FLT3, Homo sapiens, UniProt P36888)

SMILES	target	assay	setting	scale	endpoint	value
C=CC(=O)Nc1cccc(-c2cnc3[nH]cc(C(=O)NC(C)(C)C)c3n2)c1	FLT3	kinase activity	0.1 µM	–	inhibition	17% and 13%
C=CC(=O)N1Cc2nc(-c3cc(-c4cc(Cl)cnc4Cl)c(F)cc3F)n(-c3ccncn3)c2C1	FLT3	cell-free assay, inhibitor	1 µM	–	inhibition	11%
Cc1cccc(O[C@H]2CCC[C@@H](C(C)CNCc3ccncc3)C2)c1 (relative stereo)	FLT3	enzyme activity, inhibitor	10 µM	–	inhibition	0%
CCn1cc(C(=O)O)c(=O)c2c(N)c(F)c(NC3CCCCC3)cc21	FLT3	kinase activity	0.1 µM, together with: ATP at Km	–	inhibition	7.1%
Nc1ncc(-c2cc(-c3cnn(CC(F)(F)F)c3)ncc2F)nc1C(=O)NC1CNCC(F)C1 (stereo not drawn)	FLT3	enzyme activity	1 µM	baseline: DMSO control	remaining activity	48.2%
Cc1cnc2nc1Nc1cccc(c1)COC/C=C/COCc1cc(ccc1OCCN1CCOCC1)N2	Receptor-type tyrosine-protein kinase FLT3 (FLT3, Homo sapiens, UniProt P36888, F691L/ITD)	cell-free assay	0.1 µM	–	remaining signal	0%
CNC(=O)C[C@H](Cc1ccc(C#N)cc1)NC(=O)c1cc(-c2ccc(CN[C@H](C)c3ccc(C)cc3)o2)ccc1Cl	FLT3	enzyme activity, inhibitor	1 µM	–	activity vs control	103%
CN1CC[C@@H](COc2cnc(C#N)cc2-c2ccn3nc(NC(=O)C4CC4)cc3c2)C1	FLT3	enzyme activity, inhibitor	1 µM	–	inhibition	0%
COc1cc(OC)c(F)c(/C=C/c2cnc3ccn(S(=O)(=O)c4cn(CCF)cn4)c3n2)c1F	FLT3	–	10 nM	–	inhibition	0%
NC(=O)C[C@H]1CCc2sc3ncnc(O[C@H]4CC[C@H](N5CCOCC5)CC4)c3c21	FLT3	enzyme activity, inhibitor	10 µM	–	inhibition	60%
CC(C)=CC1OC(C)(C)C2C=C3C(=O)C(Cl)=CC(O)C3C3C(O)C4OC4C(=O)C132 (stereo not drawn)	Receptor-type tyrosine-protein kinase FLT3 (FLT3, Homo sapiens, UniProt P36888, K663Q)	cell-free assay, competition with immobilised ligand	10 µM	–	remaining binding	92%
COCC12C(=O)NC3C4(C(OC)CC1O)C1CC5(O)C(OC)C(O)C(OC(C)=O)(C1C5OC(=O)c1ccccc1)C3(O)C(OC)C24 (stereo not drawn)	Receptor-type tyrosine-protein kinase FLT3 (FLT3, Homo sapiens, UniProt P36888, D835Y)	kinase activity, inhibitor, ProQinase kinase profiling	25 µM	baseline: control	remaining activity	98% and 104%
CN1CCN(c2ccc(Nc3ncc(Cl)c(Nc4ccccc4P(C)(C)=O)n3)cc2Br)CC1	FLT3	enzyme activity, inhibitor	0.1 µM	–	inhibition	82.9%
O=C=[N][Ru-4]123([n]4c5ccc(O)cc5c5c6c(c7cc(F)c[n+]1c7c54)C(=O)NC6=O)[S+]1CC[S+]2CC[S+]3CC1 (stereo not drawn)	FLT3	enzyme activity	100 nM, human enzyme, together with: 10 µM ATP	baseline: untreated	remaining activity	32%
O=c1c(-c2ccc(Cl)c(CN3CCOCC3)c2)coc2cc(O)ccc12	FLT3	enzyme activity, inhibitor	1 µM	–	remaining activity	101%
